Assay results from different studies.
Protocols differ between the studies behind these lines. ± gives the spread as reported. Values after ≈ are worked out from the molar mass of the structure shown.

Compound | test | test system | conditions | how to read | quantity | value
COc1ccc(-c2cc(=O)c3c(OC)c(OC)c(OC)c(OC)c3o2)cc1OC |  | C57BL/6 mouse, male, brain | oral, 1% w/w in diet, 6 weeks, orange peel extract diet | relative to: content in orange peel | tissue to peel content ratio | 0.014%
CC(C)C[C@H](NC(=O)[C@H](CCC(=O)O)NC(=O)[C@H](CCC(=O)O)NC(=O)[C@H](CC(=O)O)NC(=O)[C@H](CCC(=O)O)NC(=O)[C@H](CCC(=O)O)NC(=O)[C@H](CCC(=O)O)NC(=O)[C@@H](N)CC(=O)O)C(=O)O |  | rat, CSF | subcutaneous, 11.0 mg/kg, 150 min |  | concentration | 9.4 ng/mL
CCCCCOc1ccc(-c2cc(-c3ccc(C(=O)N[C@H]4C[C@@H](O)[C@@H](O)NC(=O)[C@@H]5[C@@H](O)[C@@H](C)CN5C(=O)[C@H]([C@H](O)CC(N)=O)NC(=O)[C@H]([C@H](O)[C@@H](O)c5ccc(O)c(OS(=O)(=O)O)c5)NC(=O)[C@@H]5C[C@@H](O)CN5C(=O)[C@H]([C@@H](C)O)NC4=O)cc3)no2)cc1 |  | infants on ECMO, plasma | intravenous, 4 mg/kg every 24 h, 0 to 24 h, prophylactic arm |  | AUC | 74000 ng·h/mL
Cc1sc2c(c1C)C(c1ccc(Cl)cc1)=N[C@@H](CC(=O)OC(C)(C)C)c1nnc(C)n1-2 |  | Ringer's with 10% beta-cyclodextrin | time not given, plastic vessel, plastic vial | relative to: nominal 50 ng/mL | recovery | 90%
CN[C@@](C)(C[18F])C(=O)O |  | SCID mouse U87 xenograft, kidney | 30 min, post injection |  | tissue uptake | 11 ± 2.6 %ID/g
NC(=O)c1nc(F)c[nH]c1=O | UV-Vis spectrophotometry | supercritical CO2 | 120 min, 328 K, 27 MPa, 828.51 kg/m^3 |  | solubility | 1950 µg/mL (≈ 12.4 mM)
Cc1cc(C)nc(NC(=S)N2CCN(c3ccc(C(F)(F)F)cn3)CC2)c1 |  | aqueous buffer | pH 7.4 |  | kinetic solubility | 1.23 µM (≈ 0.486 µg/mL)
C[C@@H]1CN(c2cccnc2F)C(=O)c2cc(COc3ccc(Cl)cn3)nn21 |  | Sprague-Dawley rat | intraperitoneal, 56.6 mg/kg, assumed dose linearity |  | estimated unbound brain Cmax | 2300 nM
[123I]c1cncc(OC[C@@H]2CCN2)c1 | SPECT | human, frontal lobe | intravenous bolus, 8.6 mCi | relative to: tissue over plasma | tissue/plasma ratio | 12.8
CC(C)c1nc(CN(C)C(=O)N[C@H](C(=O)N[C@@H](Cc2ccccc2)C[C@H](O)[C@H](Cc2ccccc2)NC(=O)OCc2cncs2)C(C)C)cs1 |  | healthy human volunteers, plasma | oral, dose not given, alone, omeprazole interaction study |  | AUC(0-24) | 13700 ng·h/mL
CCCCCOc1ccc(-c2cc(-c3ccc(C(=O)N[C@H]4C[C@@H](O)[C@@H](O)NC(=O)[C@@H]5[C@@H](O)[C@@H](C)CN5C(=O)[C@H]([C@H](O)CC(N)=O)NC(=O)[C@H]([C@H](O)[C@@H](O)c5ccc(O)c(OS(=O)(=O)O)c5)NC(=O)[C@@H]5C[C@@H](O)CN5C(=O)[C@H]([C@@H](C)O)NC4=O)cc3)no2)cc1 |  | human paediatric patients 2 to 5 years, plasma | intravenous, 4.5 mg/kg once daily, day 7, median |  | AUC(0-tau) | 248000 ng·h/mL
CSCC[C@@H]1NC(=O)[C@H](CC(=O)O)NC(=O)CNC(=O)[C@H](CCCNC(=N)N)NC(=O)[C@H](C)NC(=O)[C@H](CCC(=O)O)NC(=O)[C@H](CCCNC(=N)N)NC(=O)[C@@H]2CSSC[C@@H]3NC(=O)[C@H](CO)NC(=O)[C@H]([C@@H](C)O)NC(=O)[C@@H]4CCCN4C(=O)[C@H](C)NC(=O)[C@H](Cc4c[nH]c5ccccc45)NC(=O)[C@H](CC(=O)O)NC(=O)CNC(=O)[C@H](CCCNC(=N)N)NC(=O)CNC(=O)[C@H](CCC(N)=O)NC(=O)[C@@H]4CCCN4C(=O)[C@@H](NC(=O)CNC(=O)C(C)F)CSSC[C@H](NC(=O)CNC(=O)[C@H](C)NC(=O)[C@H](CC(C)C)NC(=O)[C@H](CSSC[C@@H](C(=O)NCC(N)=O)NC(=O)[C@H]([C@@H](C)O)NC(=O)[C@H](CCCNC(=N)N)NC(=O)[C@@H]4CCCN4C1=O)NC(=O)[C@H](CC(=O)O)NC(=O)[C@H](CO)NC(=O)[C@H](CC(=O)O)NC(=O)[C@H](CCC(N)=O)NC(=O)[C@H](CO)NC3=O)C(=O)N[C@@H](C(C)C)C(=O)N2 (some centres unmarked) [fluorine-18 labelled] |  | nude mice U-87 MG xenograft, skin | intravenous, 1 h |  | tissue uptake | 0.68 ± 0.05 %ID/g
CCCCCCCCCCCCCCCC[N+](C)(C)Cc1ccccc1 | in vitro-in vivo extrapolation | human |  |  | hepatic clearance | 3.39 mL/h/g liver
O=C(NCCCCCn1ccc2ccc(F)cc21)Oc1ccc(C(=O)O)cc1 |  | porcine liver S9 fraction | 20 µM, 30 min, with: BNPP 1 mM |  | inhibition of degradation | 54%
CC[C@H](C)[C@@H]1NC(=O)[C@H]([C@@H](C)O)NC(=O)[C@@H](NC(=O)[C@H](Cc2ccccc2)NC(=O)[C@H](C)NC(=O)[C@H](CCCCN)NC(=O)[C@H](CCCCN)NC(=O)[C@H](C)NC(=O)[C@@H](NC(=O)[C@H](CCCCN)NC(=O)[C@H](C)NC(=O)[C@H](C)NC(=O)[C@@H](NC(=O)CNC(=O)[C@H](C)NC(=O)[C@@H](NC(=O)[C@H](CCCCN)NC(=O)[C@@H]2CCCN2C(=O)[C@H](Cc2ccccc2)NC(=O)[C@@H](N)Cc2ccccc2)C(C)C)C(C)C)C(C)C)CSSC[C@@H](C(=O)O)NC(=O)[C@H](CCCCN)NC(=O)[C@H](CCCCN)NC(=O)[C@H](CO)NC1=O | haemolysis | horse erythrocytes | 2 h, 37 °C |  | HC10 | 62.2 µM
C[C@@H]1COCCN1c1cc(C2([S@](C)(=N)=O)CC2)nc(-c2cc[nH]c3nccc2-3)n1 |  | patients with advanced solid tumours | oral, 20 mg twice daily, days 4 to 13 of 10-day cycle, phase I dose escalation, with: carboplatin AUC5 |  | tolerability | not toxic
CC(=O)N[C@H](CCCCNC(=O)C(C)F)C(=O)N[C@@H](CS)C(=O)N[C@@H](CS)C(=O)N[C@@H](CCC(=O)O)C(=O)N[C@@H](Cc1c[nH]cn1)C(=O)N[C@H](Cc1ccccc1)C(=O)N[C@@H](CCCNC(=N)N)C(=O)N[C@@H](Cc1c[nH]c2ccccc12)C(=O)N[C@@H](CS)C(=O)N[C@@H](CCCNC(=N)N)C(=O)N1CCC[C@H]1C(=O)N[C@H](C(N)=O)C(C)C (some centres unmarked) [fluorine-18 labelled] |  | nude mice, A375M tumour, kidney | intravenous, 2 h |  | kidney uptake | 6.59 ± 1.53 %ID/g
CS(=O)(=O)CCCn1c(Cn2c(=O)n(CC(F)(F)F)c3ccncc32)cc2cc(Cl)ccc21 |  | RSV-infected infants | concentration not given, mid dose cohorts |  | patients with low MCH | 8%
CN1CCC(Nc2ncc3ncnc(Nc4ccc(F)c(Cl)c4)c3n2)CC1 |  | cynomolgus monkey male, hepatic S9 | 1 µM, pH 7.4, with: without NADPH |  | CLint | 209 ± 19.6 mL/min/kg
Cc1cc(C)c(/C=C2\C(=O)Nc3ccccc32)[nH]1 | dose-limiting toxicity | zebrafish embryos, water | immersion, 72 h |  | maximum tolerated concentration | 2 µM
CCCCCOc1ccc(-c2ccc(-c3ccc(C(=O)N[C@H]4C[C@@H](O)[C@@H](O)NC(=O)[C@@H]5[C@@H](O)[C@@H](C)CN5C(=O)[C@H]([C@@H](C)O)NC(=O)[C@H]([C@H](O)[C@@H](O)c5ccc(O)cc5)NC(=O)[C@@H]5C[C@@H](O)CN5C(=O)[C@H]([C@@H](C)O)NC4=O)cc3)cc2)cc1 |  | patients aged 5 to <sample A years, plasma | intravenous, loading 3.0 then 1.5 mg/kg daily |  | AUC(0-24) steady state median | 80500 ng·h/mL
CC1(C)S[C@@H]2[C@H](NC(=O)[C@H](C(=O)O)c3ccsc3)C(=O)N2[C@H]1C(=O)O |  | rat plasma | 8000 ng/mL, -20 °C to room temperature, three freeze-thaw cycles |  | measured concentration | 8080 ± 97 ng/mL
CCC1(c2ccccc2)NC(=O)N(Cc2ccccc2)C1=O (single isomer, unassigned; (+)) | inhibitor, measured: metabolite M3 | human liver microsomes, six donors | 5 µM, with: THC 2 µM, tienilic acid, CYP3cide |  | inhibition | ≤ 67%

Excerpt of the above:
Compound | test | test system | conditions | how to read | quantity | value
NC(=O)c1nc(F)c[nH]c1=O | UV-Vis spectrophotometry | supercritical CO2 | 120 min, 328 K, 27 MPa, 828.51 kg/m^3 |  | solubility | 1950 µg/mL (≈ 12.4 mM)
CC(=O)N[C@H](CCCCNC(=O)C(C)F)C(=O)N[C@@H](CS)C(=O)N[C@@H](CS)C(=O)N[C@@H](CCC(=O)O)C(=O)N[C@@H](Cc1c[nH]cn1)C(=O)N[C@H](Cc1ccccc1)C(=O)N[C@@H](CCCNC(=N)N)C(=O)N[C@@H](Cc1c[nH]c2ccccc12)C(=O)N[C@@H](CS)C(=O)N[C@@H](CCCNC(=N)N)C(=O)N1CCC[C@H]1C(=O)N[C@H](C(N)=O)C(C)C (some centres unmarked) [fluorine-18 labelled] |  | nude mice, A375M tumour, kidney | intravenous, 2 h |  | kidney uptake | 6.59 ± 1.53 %ID/g
CC1(C)S[C@@H]2[C@H](NC(=O)[C@H](C(=O)O)c3ccsc3)C(=O)N2[C@H]1C(=O)O |  | rat plasma | 8000 ng/mL, -20 °C to room temperature, three freeze-thaw cycles |  | measured concentration | 8080 ± 97 ng/mL
